Measurements pooled from the literature.
Each numbered part is a random draw from the data of one study; scales do not carry over between parts.

Block 1 — method: protein binding microarray; molecule type: double-stranded DNA, one strand shown; matrix: in vitro; tested at: not given; reference: not given; reading: higher = stronger binding
Target: Histone acetyltransferase KAT6A, winged helix 1, GST fusion (KAT6A, Homo sapiens, UniProt Q92794, residues 1-85)
Notes: 8-mer, flanks averaged, mean of 2 arrays, mostly near background
Residues (chain): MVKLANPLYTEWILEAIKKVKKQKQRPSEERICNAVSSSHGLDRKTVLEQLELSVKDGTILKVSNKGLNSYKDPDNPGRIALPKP
Oligonucleotide | E-score
AATTCCGG | 0.0921
TAGGTATA | -0.0549
CATTCAGG | -0.124
GGTCCTCA | 0.0185
ACGCACTA | 0.171
GCTCGCGA | 0.165
AGGTCGGC | 0.187
CAACACTC | -0.0498
AGTTGGTA | -0.263
CTGCCTTA | -0.0946
GTATTTCA | -0.0902
GCATCAAA | -0.0673
TCGCGTCA | 0.0721

Block 2 — method: universal PBM; molecule type: double-stranded DNA, one strand shown; matrix: in vitro; tested at: 600 nM; reading: higher = stronger binding
Target: Sal-like protein 4, full length isoform A (SALL4, Homo sapiens, UniProt Q9UJQ4, residues 1-1053)
Sequence of UniProt Q9UJQ4 (whole entry, looked up): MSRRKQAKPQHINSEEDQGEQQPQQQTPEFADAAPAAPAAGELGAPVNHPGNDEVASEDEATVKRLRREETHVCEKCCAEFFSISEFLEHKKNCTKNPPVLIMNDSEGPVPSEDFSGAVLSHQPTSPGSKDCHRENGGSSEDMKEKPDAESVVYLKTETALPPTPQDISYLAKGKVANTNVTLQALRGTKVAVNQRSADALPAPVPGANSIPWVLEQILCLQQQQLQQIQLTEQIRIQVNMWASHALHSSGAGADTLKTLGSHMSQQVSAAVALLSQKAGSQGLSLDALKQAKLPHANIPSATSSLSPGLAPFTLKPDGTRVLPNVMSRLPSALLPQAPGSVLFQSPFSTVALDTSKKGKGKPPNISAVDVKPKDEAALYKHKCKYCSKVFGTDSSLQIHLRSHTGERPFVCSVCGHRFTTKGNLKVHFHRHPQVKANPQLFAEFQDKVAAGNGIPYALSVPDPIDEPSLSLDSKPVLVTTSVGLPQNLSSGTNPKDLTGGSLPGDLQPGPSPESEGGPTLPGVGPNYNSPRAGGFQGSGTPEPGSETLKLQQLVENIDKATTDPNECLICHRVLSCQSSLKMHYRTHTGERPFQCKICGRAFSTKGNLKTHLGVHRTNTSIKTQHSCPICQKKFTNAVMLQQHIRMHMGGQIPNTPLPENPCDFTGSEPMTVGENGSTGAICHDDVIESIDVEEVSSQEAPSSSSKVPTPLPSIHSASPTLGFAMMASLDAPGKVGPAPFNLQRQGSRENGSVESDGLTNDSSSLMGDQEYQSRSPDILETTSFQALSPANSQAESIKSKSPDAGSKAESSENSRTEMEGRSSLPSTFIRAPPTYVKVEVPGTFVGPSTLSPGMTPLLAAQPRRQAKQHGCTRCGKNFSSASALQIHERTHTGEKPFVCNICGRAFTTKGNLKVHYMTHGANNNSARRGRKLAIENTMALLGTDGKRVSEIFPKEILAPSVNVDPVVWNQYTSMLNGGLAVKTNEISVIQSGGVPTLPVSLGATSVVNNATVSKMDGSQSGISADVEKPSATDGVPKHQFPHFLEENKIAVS
Notes: 8-mer, flanks averaged, mean of replicates
Oligonucleotide | E-score
CTCAATAC | 0.133
CGTATCAC | 0.0137
TTAGTCAA | 0.147
GCCTCGCC | -0.392
AGACGCTA | -0.107
CGTTGCTC | -0.199
GGTTAGAA | -0.0154
CCGCCAGC | -0.341
GACGGATA | -0.0575

Block 3 — method: protein-binding microarray; molecule type: double-stranded DNA, one strand shown; matrix: in vitro; tested at: 2200 nM top; notes: 60-bp whole probe; with: salmon DNA 0.4 mg/ml; reference: random background probes; reading: higher = stronger binding; constant ends, left off below: GCCTAGCAC … GTCTTGATTCGCTTGACGCTGCTG
Target: Interferon regulatory factor 7, full length, phosphomimetic (IRF7, Homo sapiens, UniProt Q92985, residues 1-503, S471D/S472D/S475D/S476D/S477D/S483D/S484D/S487D)
Sequence of UniProt Q92985 (whole entry, unmodified, looked up): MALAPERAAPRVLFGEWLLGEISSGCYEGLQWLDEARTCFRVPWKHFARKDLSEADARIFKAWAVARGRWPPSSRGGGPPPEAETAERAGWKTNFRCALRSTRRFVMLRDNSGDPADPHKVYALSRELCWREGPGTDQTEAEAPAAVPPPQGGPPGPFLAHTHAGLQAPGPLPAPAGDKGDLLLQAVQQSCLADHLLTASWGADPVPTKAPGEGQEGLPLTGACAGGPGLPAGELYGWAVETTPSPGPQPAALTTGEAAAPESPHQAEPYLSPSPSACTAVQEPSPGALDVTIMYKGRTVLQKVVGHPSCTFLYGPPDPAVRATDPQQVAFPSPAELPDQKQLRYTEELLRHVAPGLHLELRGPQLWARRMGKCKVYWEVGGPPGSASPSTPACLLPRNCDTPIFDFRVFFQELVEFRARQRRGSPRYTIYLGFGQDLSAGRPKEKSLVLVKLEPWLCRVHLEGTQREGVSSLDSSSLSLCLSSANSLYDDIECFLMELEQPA
Oligonucleotide | fitted relative affinity [z-score]
TTAGGACTGCTTTTCCTTTAGTGCTAG | 1.72
GACGGTTTCGAAACTGGGGACGTGCTA | 3.37
CACGATTTCAGTCTCGAGACGTGCTAG | 1.37
TTATGTATCGGGTATCGGTTAGTGCTA | 1.06
TTAGAACTGGGGTTTCGATCAGTGCTA | 0.764

Block 4 — method: Sort-seq; measured: YFP reporter; matrix: E. coli; notes: PhoQ-PhoP variant library; with: 10 µM Mg2+; reference: high Mg2+ state; reading: higher = stronger signaling
Molecule: PhoQ, residues 284 288 289 292 302 303 SMYGEC
target | fold induction
PhoP, residues 12 14 15 18 19 ICWRQ (Escherichia coli, UniProt P23836) | 15.2
PhoP, residues 12 14 15 18 19 VHTVL (Escherichia coli, UniProt P23836) | 1.51
PhoP, residues 12 14 15 18 19 TQCLL (Escherichia coli, UniProt P23836) | 11.4

Repeated from above (block 1):
Oligonucleotide | E-score
GGTCCTCA | 0.0185
ACGCACTA | 0.171
GCTCGCGA | 0.165
